Experimental data of several laboratories.
Each line is one published result; not all experiments were run side by side.
Organism: Pseudomonas aeruginosa

| Compound | test | system | conditions | MIC |
| --- | --- | --- | --- | --- |
| CCCCCCCCCCCCC[C@@H](O)Cc1cc(O)cc(O)c1 | broth microdilution | PAO1 chloramphenicol-resistant | 37 °C | > 64 µg/mL |
| CC(C)C[C@@H]1NC(=O)CSC[C@@H](C(=O)N[C@@H](CCCCN)C(N)=O)NC(=O)[C@H](CC(C)C)NC(=O)[C@H](CCCCN)NC(=O)[C@H](CCCCN)NC(=O)[C@@H]2CSCC(=O)N[C@@H](CC(C)C)C(=O)N[C@@H](CC(C)C)C(=O)N[C@@H](CCCCNC(=O)[C@H](CC(C)C)NC1=O)C(=O)N[C@@H](CCCCN)C(=O)N[C@@H](CC(C)C)C(=O)N[C@@H](CCCCN)C(=O)N2 | – | PAO1 | 18 h | > 256 µg/mL |
| C[C@@](O)(C(F)F)[C@H](NC(=O)c1ccc(C#CC#CC2CC2)cc1)C(=O)NO | broth microdilution | PAO1, CAMHB | – | 0.122 µg/mL |
| CC[C@@H](C)[C@@H](NC(=O)[C@@H](C)NC(=O)[C@@H](CCCCN)NC(=O)[C@@H](CC(C)C)NC(=O)[C@@H](C)NC(=O)[C@H](NC(=O)[C@@H](Cc1c[nH]cn1)NC(=O)[C@@H](CC(C)C)NC(=O)[C@H](NC(=O)[C@H](NC(=O)[C@@H](CCCCN)NC(=O)[C@@H](CCCCN)NC(=O)[C@@H](C)NC(=O)[C@@H](CO)NC(=O)[C@@H](CCCCN)NC(=O)[C@@H](Cc1ccccc1)NC(=O)[C@H](NC(=O)[C@@H](CCCCN)NC(=O)[C@@H](CC(C)C)NC(=O)[C@@H](Cc1ccccc1)NC(=O)[C@@H](CO)NC(=O)[C@@H](CCCCN)NC(=O)[C@@H](Cc1c[nH]c2ccccc12)NC(=O)[C@@H](CCCCN)NC(C)=O)[C@H](C)O)[C@H](C)O)C(C)C)[C@H](C)O)C(=O)N[C@H](CO)C(=O)N[C@H](CO)C(N)=O | broth microdilution | PAO1 | 24 h, 37 °C | 2.6 µM |
| CC(C)[C@H](NC(=O)[C@H](CCCCN)NC(=O)[C@H](CCCNC(=N)N)NC(=O)[C@@H](NC(=O)[C@H](C)NC(=O)[C@H](CC(N)=O)NC(=O)[C@H](CCCNC(=N)N)NC(=O)[C@@H](NC(=O)[C@H](CCCCN)NC(=O)[C@H](CCCCN)NC(=O)[C@@H](NC(=O)[C@@H](NC(=O)[C@H](CCCNC(=N)N)NC(=O)[C@H](CCCNC(=N)N)NC(=O)[C@H](Cc1c[nH]c2ccccc12)NC(=O)[C@H](Cc1c[nH]c2ccccc12)NC(=O)CN)[C@@H](C)O)C(C)C)C(C)C)C(C)C)C(=O)O | – | CMCC 10104 | 18 h, 37 °C | 8 µg/mL |
| CCCCCCCC(=O)NCCCC[C@@H]1NC(=O)[C@H](CCCNC(=N)N)NC(=O)[C@H](CCCNC(=N)N)NC(=O)[C@H](CCCNC(=N)N)NC(=O)[C@H](CCCNC(=N)N)NC(=O)[C@H](CCCNC(=N)N)NC1=O | broth microdilution | PAO1 | 37 °C | > 129 µg/mL |
| CC[C@H](C)[C@@H]1NC(=O)CNC(=O)[C@H](CCCCN)NC(=O)[C@H](C)NC(=O)[C@H](CCC(=O)O)NC(=O)[C@H](Cc2ccccc2)NC(=O)[C@H](CO)NC(=O)[C@H](CC(C)C)NC(=O)[C@H](C(C)C)NC(=O)[C@H](CC(=O)O)NC(=O)[C@@H](NC(=O)[C@@H](NC(=O)[C@@H](N)C(C)C)[C@@H](C)O)CSSC[C@@H]2NC(=O)[C@H](CO)NC(=O)CNC(=O)CNC(=O)[C@H](CCCCN)NC(=O)[C@H](CCCCN)NC(=O)[C@H](CCCNC(=N)N)NC(=O)[C@H](CC(C)C)NC(=O)[C@H](C)NC(=O)[C@H]([C@@H](C)CC)NC(=O)[C@@H]3CSSC[C@@H](C(=O)N[C@@H](CCCNC(=N)N)C(=O)N[C@@H](CC(N)=O)C(=O)O)NC(=O)[C@H](C(C)C)NC(=O)[C@H](CSSC[C@H](NC(=O)[C@H](C)NC(=O)[C@H](CO)NC(=O)[C@H](Cc4c[nH]cn4)NC(=O)[C@H](CC(N)=O)NC(=O)[C@H](C(C)C)NC(=O)[C@H](C)NC1=O)C(=O)N[C@@H](C)C(=O)N[C@@H](CC(C)C)C(=O)N[C@@H](Cc1c[nH]cn1)C(=O)N3)NC(=O)[C@H](C(C)C)NC(=O)CNC(=O)[C@H](CC(N)=O)NC(=O)[C@H](CCC(N)=O)NC2=O | broth microdilution | KCTC 1637 | 16 h, 37 °C | 3.1 µM |
| CC1C(=NOCc2cn(-c3ccccc3)nn2)C(C)C(c2ccc(Br)cc2)OC1c1ccc(Br)cc1 (stereo not shown) | microbial growth, broth dilution | MTCC741 | 24 h | 6.3 µg/mL |
| CC(C)C[C@H](NC(=O)[C@H](CC(C)C)NC(=O)[C@H](CCCCN)NC(=O)CNC(=O)[C@H](CC(C)C)NC(=O)[C@H](CC(C)C)NC(=O)[C@H](CO)NC(=O)[C@H](CC(C)C)NC(=O)[C@H](CC(C)C)NC(=O)[C@H](CO)NC(=O)[C@H](CC(C)C)NC(=O)[C@H](CC(C)C)NC(=O)CN)C(N)=O | broth microdilution | – | – | > 120 µM |
| CC(C)C[C@H](NC(=O)[C@@H]1CSCC(=O)N[C@@H](CCCCN)C(=O)N[C@@H](CC(C)C)C(=O)N[C@@H](CC(C)C)C(=O)N[C@H]2CCCCNC(=O)[C@H](CC(C)C)NC(=O)[C@H](CC(C)C)NC(=O)[C@H](CCCCN)NC(=O)CSC[C@H](NC(=O)[C@H](CC(C)C)NC(=O)[C@H](CC(C)C)NC(=O)[C@H](CCCCN)NC2=O)C(=O)N[C@@H](CCCCN)C(=O)N[C@@H](CCCCN)C(=O)N[C@@H](CCCCN)C(=O)N1)C(N)=O | – | PAO1 | 18 h | > 256 µg/mL |

Some of these lines once more:
| Compound | test | system | conditions | MIC |
| --- | --- | --- | --- | --- |
| CC(C)C[C@@H]1NC(=O)CSC[C@@H](C(=O)N[C@@H](CCCCN)C(N)=O)NC(=O)[C@H](CC(C)C)NC(=O)[C@H](CCCCN)NC(=O)[C@H](CCCCN)NC(=O)[C@@H]2CSCC(=O)N[C@@H](CC(C)C)C(=O)N[C@@H](CC(C)C)C(=O)N[C@@H](CCCCNC(=O)[C@H](CC(C)C)NC1=O)C(=O)N[C@@H](CCCCN)C(=O)N[C@@H](CC(C)C)C(=O)N[C@@H](CCCCN)C(=O)N2 | – | PAO1 | 18 h | > 256 µg/mL |
